Measurements gathered from unrelated publications.
Lines come from different studies, so protocols differ. ± gives the spread as reported.

SMILES = CC(=O)N[C@@H](CC(N)=O)C(=O)NCC(=O)N[C@@H](C)C(=O)N[C@@H](C)C(N)=O; assay = 1H NMR; test system = sodium phosphate buffer 50 mM; setting = pH 7.8, 55 °C; endpoint = rate constant succinimide to β-Asp; value = 8.06 h⁻¹
SMILES = COc1c2c(cc3oc(C)cc(=O)c13)O[C@H](C(C)(C)O[C@@H]1O[C@H](CO)[C@@H](O)[C@H](O)[C@H]1O)C2; assay = analgesia; test system = mouse; setting = oral, 1 mg/kg, 0.5 h; endpoint = hot plate latency; value = 9.25 ± 1.56 s
SMILES = CC[C@H]1[C@@H](O)[C@@H]2[C@H](CC[C@]3(C)[C@@H]([C@H](C)CCOS(=O)(=O)[O-])CC[C@@H]23)[C@@]2(C)CC[C@@H](O)C[C@@H]12.[Na+]; test system = ob/ob NASH mouse model, plasma; setting = oral, 3 mg/kg once daily, before treatment, baseline of 8 week study; endpoint = ALT activity; value = 552 ± 36.1 U/L
SMILES = CCCCCCCCCCCCCCCC(=O)NCCCC[C@H](N)C(=O)N[C@@H](CC(=O)O)C(=O)N[C@H](C(=O)N[C@@H](Cc1c[nH]cn1)C(=O)N[C@@H](Cc1ccccc1)C(=O)N[C@@H](CCCNC(=N)N)C(=O)N[C@H](C(=O)N[C@@H](Cc1ccccc1)C(=O)N[C@@H](CCCNC(=N)N)C(=O)N[C@@H](CO)C(=O)N[C@@H](Cc1c[nH]cn1)C(=O)N[C@@H](CO)C(=O)N[C@@H](CC(=O)O)C(=O)N[C@@H](Cc1ccc(O)cc1)C(=O)N[C@@H](CCCNC(=N)N)C(=O)N[C@@H](CCCNC(=N)N)C(=O)N[C@H](C(=O)O)[C@@H](C)CC)[C@@H](C)O)[C@@H](C)O; test system = C57BL/6J mouse, MCD diet; setting = intraperitoneal, 1.2 nmol/g, 3 weeks, 3 times weekly; endpoint = serum AST; value = 151 ± 20.8 IU/L
SMILES = CC(=O)N[C@@H](CC1CCCCC1)C(=O)N[C@H]1CSSC[C@@H](C(=O)N[C@@H](CCCNC(=N)N)C(N)=O)NC(=O)[C@H](CC2CCCCC2)NC(=O)[C@H](CCCNC(=N)N)NC(=O)[C@H](CCCNC(=N)N)NC(=O)[C@H](CC2CCCCC2)NC(=O)[C@H](CC(C)C)NC(=O)[C@H](CCCNC(=N)N)NC(=O)[C@@H](NC(=O)[C@H](CC2CCCCC2)NC(C)=O)CSSC[C@@H](C(=O)N[C@@H](CCCNC(=N)N)C(N)=O)NC(=O)[C@H](CC2CCCCC2)NC(=O)[C@H](CCCNC(=N)N)NC(=O)[C@H](CCCNC(=N)N)NC(=O)[C@H](CC2CCCCC2)NC(=O)[C@H](CC(C)C)NC(=O)[C@H](CCCNC(=N)N)NC1=O; test system = mouse bilateral renal ischemia-reperfusion; setting = iv, 1 to 5 mg/kg, 24 h after injury, dosed 1 h before injury; how to read = relative to: vehicle; endpoint = serum BUN and creatinine; value = decreased
SMILES = O=C(O)C1OC(Oc2cccc(-c3nc(N4CCOCC4)c4oc5ncccc5c4n3)c2)C(O)C(O)C1O (stereo not drawn); assay = glucuronide formation; test system = rat liver microsomes; endpoint = Vmax; value = 95.3 ± 2.98 pmol/min/mg
SMILES = O=C1/C(=C/c2ccc(O)c(O)c2)Oc2c1c(O)cc(O)c2-c1ccc(O)c(O)c1; test system = mouse, CCl4-induced liver injury; setting = intragastric, 200 or 100 mg/kg, 10 days pretreatment; endpoint = serum AST level; value = decreased
SMILES = C[C@H](NC(=O)COC(=O)[C@H](C)NC(=O)CO)C(=O)O; test system = water; setting = pH 5, 37 °C; endpoint = depolymerization rate constant; value = 0.055 h⁻¹
SMILES = CCOc1c(C(C)(C)O)sc2cnc(Nc3ccc(N4CCC(N5CC6(COC6)C5)CC4)cc3OC)nc12; test system = human atrial trabeculae; setting = 1 and 3 µM, stimulation 1 Hz; how to read = relative to: vehicle; endpoint = developed tension; value = no effect
SMILES = Cc1cc(O)c(C=O)c2c1C(=O)Oc1c(CO)c(O)c3c(c1O2)C(O)OC3=O (stereo not drawn); test system = streptozotocin-induced diabetic male rats, plasma; setting = 5 mg/kg, 9 weeks; endpoint = fasting plasma glucose; value = 207 ± 5.85 mg/dL
SMILES = CC(C)=CCCC(C)=CCc1cc(-c2coc3cc(OC4OC(C(=O)O)C(O)C(O)C4O)ccc3c2=O)ccc1O (stereo not drawn); assay = glucuronidation, substrate; test system = rabbit liver microsomes; endpoint = Vmax; value = 2860 ± 249 pmol/min/mg
SMILES = CCCCCCCCCC(=O)N[C@@H](Cc1c[nH]c2ccccc12)C(=O)N[C@H](CC(N)=O)C(=O)N[C@@H](CC(=O)O)C(=O)N[C@@H]1C(=O)NCC(=O)N[C@@H](CCCN)C(=O)N[C@@H](CC(=O)O)C(=O)N[C@H](C)C(=O)N[C@@H](CC(=O)O)C(=O)NCC(=O)N[C@H](CO)C(=O)N[C@@H]([C@H](C)CC(=O)O)C(=O)N[C@@H](CC(=O)c2ccccc2N)C(=O)O[C@@H]1C; assay = membrane leakage; test system = bacterial mimic liposomes; setting = 50 µg/mL, 100 min; endpoint = calcein release; value = 44%

For quick reference, copied from above:
SMILES = CCOc1c(C(C)(C)O)sc2cnc(Nc3ccc(N4CCC(N5CC6(COC6)C5)CC4)cc3OC)nc12; test system = human atrial trabeculae; setting = 1 and 3 µM, stimulation 1 Hz; how to read = relative to: vehicle; endpoint = developed tension; value = no effect
SMILES = Cc1cc(O)c(C=O)c2c1C(=O)Oc1c(CO)c(O)c3c(c1O2)C(O)OC3=O (stereo not drawn); test system = streptozotocin-induced diabetic male rats, plasma; setting = 5 mg/kg, 9 weeks; endpoint = fasting plasma glucose; value = 207 ± 5.85 mg/dL
